{"data": "Experimental data from different studies", "note": "Numbered parts are unrelated; each lists some results of a single study. Several values in a cell are separate wells, animals, samples, runs or records. pIC50: −log10 of the molar value.", "sequence of UniProt Q9Y2H9 (whole entry, looked up)": "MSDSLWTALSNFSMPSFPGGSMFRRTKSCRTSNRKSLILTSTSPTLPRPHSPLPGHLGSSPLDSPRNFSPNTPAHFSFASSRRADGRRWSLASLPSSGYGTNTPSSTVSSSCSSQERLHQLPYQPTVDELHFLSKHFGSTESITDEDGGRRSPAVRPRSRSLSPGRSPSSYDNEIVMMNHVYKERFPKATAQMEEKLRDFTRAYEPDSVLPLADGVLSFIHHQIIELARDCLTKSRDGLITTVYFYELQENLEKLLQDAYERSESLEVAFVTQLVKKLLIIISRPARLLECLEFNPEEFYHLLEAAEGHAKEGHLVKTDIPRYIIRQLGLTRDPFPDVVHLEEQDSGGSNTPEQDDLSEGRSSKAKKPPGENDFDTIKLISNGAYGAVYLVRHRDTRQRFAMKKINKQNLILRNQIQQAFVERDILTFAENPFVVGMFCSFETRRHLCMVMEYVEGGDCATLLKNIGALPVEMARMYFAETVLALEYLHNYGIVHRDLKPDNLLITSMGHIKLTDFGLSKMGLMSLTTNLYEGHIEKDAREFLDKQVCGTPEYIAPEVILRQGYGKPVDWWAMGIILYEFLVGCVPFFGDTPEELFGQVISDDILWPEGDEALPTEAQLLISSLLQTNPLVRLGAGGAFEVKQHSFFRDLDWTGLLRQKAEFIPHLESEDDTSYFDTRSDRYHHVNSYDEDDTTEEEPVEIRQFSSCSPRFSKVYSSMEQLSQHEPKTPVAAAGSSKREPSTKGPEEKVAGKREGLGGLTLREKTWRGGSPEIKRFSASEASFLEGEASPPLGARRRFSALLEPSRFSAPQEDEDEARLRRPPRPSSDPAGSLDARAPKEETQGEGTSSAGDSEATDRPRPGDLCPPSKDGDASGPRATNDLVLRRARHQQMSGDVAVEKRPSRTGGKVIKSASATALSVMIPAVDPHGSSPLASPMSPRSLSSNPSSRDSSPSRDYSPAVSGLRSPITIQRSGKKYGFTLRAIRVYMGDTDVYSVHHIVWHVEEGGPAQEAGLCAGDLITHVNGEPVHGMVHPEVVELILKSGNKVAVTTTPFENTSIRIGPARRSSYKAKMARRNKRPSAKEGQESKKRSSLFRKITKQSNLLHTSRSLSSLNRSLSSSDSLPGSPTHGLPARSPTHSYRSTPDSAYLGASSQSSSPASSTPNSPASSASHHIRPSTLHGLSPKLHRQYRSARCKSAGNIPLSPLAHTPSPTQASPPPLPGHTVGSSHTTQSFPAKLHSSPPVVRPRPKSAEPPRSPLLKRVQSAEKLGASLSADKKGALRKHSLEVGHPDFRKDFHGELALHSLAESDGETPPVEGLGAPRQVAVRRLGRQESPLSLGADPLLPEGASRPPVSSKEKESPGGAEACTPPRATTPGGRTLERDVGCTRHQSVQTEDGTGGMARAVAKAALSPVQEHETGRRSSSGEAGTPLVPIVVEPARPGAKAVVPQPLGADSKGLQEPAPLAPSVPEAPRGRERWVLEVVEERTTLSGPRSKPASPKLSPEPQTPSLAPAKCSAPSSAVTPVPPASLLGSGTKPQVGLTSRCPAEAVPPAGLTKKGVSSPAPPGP", "sequence of UniProt Q12851 (whole entry, looked up)": "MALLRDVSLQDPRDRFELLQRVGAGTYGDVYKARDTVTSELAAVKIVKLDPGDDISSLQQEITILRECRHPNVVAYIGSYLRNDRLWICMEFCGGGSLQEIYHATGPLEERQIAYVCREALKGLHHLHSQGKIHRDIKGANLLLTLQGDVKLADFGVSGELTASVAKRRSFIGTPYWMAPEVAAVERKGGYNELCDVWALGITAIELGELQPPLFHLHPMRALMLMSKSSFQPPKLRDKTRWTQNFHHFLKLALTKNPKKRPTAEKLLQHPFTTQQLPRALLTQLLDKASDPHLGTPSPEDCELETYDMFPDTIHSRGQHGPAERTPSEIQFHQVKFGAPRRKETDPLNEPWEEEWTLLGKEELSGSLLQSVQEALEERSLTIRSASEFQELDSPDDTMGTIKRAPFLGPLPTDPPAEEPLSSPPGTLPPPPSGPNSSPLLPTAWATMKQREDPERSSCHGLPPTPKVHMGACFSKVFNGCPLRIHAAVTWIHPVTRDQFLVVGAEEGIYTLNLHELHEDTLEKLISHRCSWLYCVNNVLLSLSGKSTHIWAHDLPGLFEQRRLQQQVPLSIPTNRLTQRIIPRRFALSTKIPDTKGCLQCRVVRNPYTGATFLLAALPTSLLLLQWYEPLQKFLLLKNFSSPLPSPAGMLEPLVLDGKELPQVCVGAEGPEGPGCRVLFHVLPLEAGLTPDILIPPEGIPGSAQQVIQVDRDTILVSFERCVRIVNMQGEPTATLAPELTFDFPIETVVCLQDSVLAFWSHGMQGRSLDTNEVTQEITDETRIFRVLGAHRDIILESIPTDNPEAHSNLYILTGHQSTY", "sequence of UniProt O00506 (whole entry, looked up)": "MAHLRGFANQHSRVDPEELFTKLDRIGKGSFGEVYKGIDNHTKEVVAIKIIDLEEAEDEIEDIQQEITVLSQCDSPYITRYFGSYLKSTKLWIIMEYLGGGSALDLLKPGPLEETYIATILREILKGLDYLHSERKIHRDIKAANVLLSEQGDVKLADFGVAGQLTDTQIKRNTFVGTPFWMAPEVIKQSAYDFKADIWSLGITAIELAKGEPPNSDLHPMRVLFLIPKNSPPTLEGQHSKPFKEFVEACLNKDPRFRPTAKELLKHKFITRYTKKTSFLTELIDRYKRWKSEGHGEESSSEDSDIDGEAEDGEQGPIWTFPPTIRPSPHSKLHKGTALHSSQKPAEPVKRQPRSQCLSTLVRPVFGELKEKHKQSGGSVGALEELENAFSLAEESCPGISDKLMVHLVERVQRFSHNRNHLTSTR", "sequence of UniProt P78362 (whole entry, looked up)": "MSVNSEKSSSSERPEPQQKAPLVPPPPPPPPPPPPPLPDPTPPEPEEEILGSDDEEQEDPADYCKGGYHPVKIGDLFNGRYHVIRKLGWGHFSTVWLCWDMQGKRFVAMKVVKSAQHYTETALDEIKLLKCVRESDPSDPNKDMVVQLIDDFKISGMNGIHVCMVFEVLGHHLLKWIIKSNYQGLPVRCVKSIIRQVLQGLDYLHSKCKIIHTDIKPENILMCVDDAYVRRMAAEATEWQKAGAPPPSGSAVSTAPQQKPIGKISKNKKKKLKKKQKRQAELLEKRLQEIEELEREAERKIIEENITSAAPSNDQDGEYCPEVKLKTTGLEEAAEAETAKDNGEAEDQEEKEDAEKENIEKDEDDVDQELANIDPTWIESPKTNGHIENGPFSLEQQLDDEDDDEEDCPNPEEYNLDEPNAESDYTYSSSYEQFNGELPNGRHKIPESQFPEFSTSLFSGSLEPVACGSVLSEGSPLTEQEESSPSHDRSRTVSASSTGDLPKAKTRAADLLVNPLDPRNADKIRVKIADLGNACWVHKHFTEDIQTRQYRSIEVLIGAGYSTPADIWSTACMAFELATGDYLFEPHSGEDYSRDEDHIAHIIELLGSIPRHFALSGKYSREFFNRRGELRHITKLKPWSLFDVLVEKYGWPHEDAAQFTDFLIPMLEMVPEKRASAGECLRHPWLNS", "sequence of UniProt P21709 (whole entry, looked up)": "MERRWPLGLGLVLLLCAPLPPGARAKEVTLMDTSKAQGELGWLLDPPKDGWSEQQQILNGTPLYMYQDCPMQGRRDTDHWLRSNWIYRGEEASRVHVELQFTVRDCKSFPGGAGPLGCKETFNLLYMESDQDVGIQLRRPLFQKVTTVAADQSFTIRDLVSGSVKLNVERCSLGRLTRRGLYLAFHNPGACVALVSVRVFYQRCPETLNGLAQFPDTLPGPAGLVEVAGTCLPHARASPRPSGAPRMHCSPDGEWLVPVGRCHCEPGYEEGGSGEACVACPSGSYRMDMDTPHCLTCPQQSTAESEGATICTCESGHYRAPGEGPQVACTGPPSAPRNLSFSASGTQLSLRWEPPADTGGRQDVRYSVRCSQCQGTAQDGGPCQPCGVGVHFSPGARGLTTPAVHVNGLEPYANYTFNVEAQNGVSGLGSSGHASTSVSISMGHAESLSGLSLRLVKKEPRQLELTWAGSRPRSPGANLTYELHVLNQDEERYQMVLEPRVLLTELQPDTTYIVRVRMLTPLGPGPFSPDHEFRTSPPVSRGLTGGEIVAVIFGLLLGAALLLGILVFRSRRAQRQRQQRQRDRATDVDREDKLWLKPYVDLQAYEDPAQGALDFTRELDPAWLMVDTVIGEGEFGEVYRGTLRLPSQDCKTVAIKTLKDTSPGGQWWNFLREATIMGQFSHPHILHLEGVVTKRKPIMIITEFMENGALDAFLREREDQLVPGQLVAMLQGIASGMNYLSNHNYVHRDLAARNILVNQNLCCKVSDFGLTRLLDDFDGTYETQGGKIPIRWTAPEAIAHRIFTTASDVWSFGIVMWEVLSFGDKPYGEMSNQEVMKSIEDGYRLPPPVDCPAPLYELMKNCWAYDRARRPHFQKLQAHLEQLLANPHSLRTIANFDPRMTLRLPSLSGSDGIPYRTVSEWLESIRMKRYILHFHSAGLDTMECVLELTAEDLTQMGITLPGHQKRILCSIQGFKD"}
{"data": "Sample 1", "Structure (SMILES)": "CC(C)C(=O)N1CCN(c2nc(OC[C@@H]3CCCN3C)nc3c2CCN(c2cccc4cccc(Cl)c24)C3)C[C@@H]1CC#N", "read-out": "binding", "action": "competitor", "technique": "NanoBRET", "cells": "HEK293", "KRAS Q61L": "GTPase KRas (KRAS, Homo sapiens, UniProt P01116, Q61L)"}
{"target": "KRAS Q61L", "tested at": "33.3 µM", "normalized BRET": "68.9% and 76.5% and 75%"}
{"target": "KRAS Q61L", "tested at": "1.24 µM", "normalized BRET": "97.1% and 97.5% and 93.4%"}
{"target": "GTPase KRas (KRAS, Homo sapiens, UniProt P01116, Q61R)", "tested at": "1.24 µM", "normalized BRET": "107% and 94.7% and 100%"}
{"target": "KRAS Q61L", "tested at": "45.7 nM", "normalized BRET": "92.2% and 97.3% and 99.3%"}
{"target": "GTPase KRas (KRAS, Homo sapiens, UniProt P01116, G12D)", "tested at": "1.69 nM", "normalized BRET": "91.6% and 101%"}
{"data": "Sample 2", "SMILES": "C=CC(=O)N1CCC([C@@H]2CCNc3c(C(N)=O)c(-c4ccc(Oc5ccccc5)cc4)nn32)CC1", "read-out": "enzyme activity", "action": "inhibitor", "tested at": "1 µM"}
{"target": "SRMS (Homo sapiens, UniProt Q9H3Y6)", "inhibition [%]": 88}
{"target": "NEK11 (Homo sapiens, UniProt Q8NG66)", "inhibition [%]": 0}
{"target": "MAST1 (Homo sapiens, UniProt Q9Y2H9)", "inhibition [%]": 12}
{"target": "PAK4 (Homo sapiens, UniProt O96013)", "inhibition [%]": 13}
{"target": "SRPK2 (Homo sapiens, UniProt P78362)", "inhibition [%]": 7}
{"data": "Sample 3", "Compound": "C[C@H]1CC[C@H](n2c3cnccc3c3cnc(Nc4ccc5c(n4)CCN(C(=O)CO)C5)nc32)CC1", "tested at": "1 µM"}
{"target": "CIT (Homo sapiens, UniProt O14578)", "read-out": "binding", "technique": "competition with immobilised ligand", "remaining binding [%]": 60}
{"target": "EPHA1 (Homo sapiens, UniProt P21709)", "read-out": "cell-free assay", "technique": "competition with immobilised ligand", "remaining binding [%]": 91}
{"target": "STK25 (Homo sapiens, UniProt O00506)", "read-out": "binding", "technique": "competition with immobilised ligand", "remaining binding [%]": 53}
{"target": "NTRK3 (Homo sapiens, UniProt Q16288)", "read-out": "cell-free assay", "technique": "competition with immobilised ligand", "remaining binding [%]": 12}
{"target": "AAK1 (Homo sapiens, UniProt Q2M2I8)", "read-out": "binding", "technique": "competition with immobilised ligand", "remaining binding [%]": 31}
{"target": "MST1R (Homo sapiens, UniProt Q04912)", "read-out": "binding", "remaining binding [%]": 100}
{"target": "MAP4K2 (Homo sapiens, UniProt Q12851)", "read-out": "binding", "technique": "competition with immobilised ligand", "remaining binding [%]": 64}
{"data": "Sample 4", "target": "5-hydroxytryptamine receptor 1A (HTR1A, Homo sapiens, UniProt P08908)", "read-out": "ligand displacement", "technique": "radioligand", "tested at": "10 µM", "sequence of UniProt P08908 (whole entry, looked up)": "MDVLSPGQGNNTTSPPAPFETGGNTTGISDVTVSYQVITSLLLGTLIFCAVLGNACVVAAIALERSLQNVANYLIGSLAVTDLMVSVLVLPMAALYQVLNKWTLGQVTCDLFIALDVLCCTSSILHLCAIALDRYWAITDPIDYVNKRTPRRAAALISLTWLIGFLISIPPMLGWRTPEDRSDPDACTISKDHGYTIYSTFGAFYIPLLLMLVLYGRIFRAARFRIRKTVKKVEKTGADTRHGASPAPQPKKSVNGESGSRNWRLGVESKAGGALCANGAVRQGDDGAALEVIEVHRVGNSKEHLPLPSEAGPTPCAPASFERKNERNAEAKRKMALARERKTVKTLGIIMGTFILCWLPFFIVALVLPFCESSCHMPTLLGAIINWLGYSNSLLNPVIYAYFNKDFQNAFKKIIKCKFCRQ"}
{"Compound": "CNC(=O)Nc1ccc2c(c1)CC[C@]21OC(=O)N(CC(=O)N(Cc2ccc(F)cc2)[C@@H](C)C(F)(F)F)C1=O", "inhibition": "6.87%"}
{"Compound": "CCC(=O)N[C@H]1CC[C@@H](C(=O)N(C)c2ccc(-c3nc4ccccc4o3)cc2)C1", "inhibition": "19.5%"}
{"Compound": "CS(=O)(=O)c1cc(C2(NC(=O)c3cncc4c3cnn4-c3ccc(F)cc3)CC2)ccn1", "inhibition": "-9.71%"}
{"Compound": "CS(=O)(=O)NCC[C@H](NC(=O)c1cncc2c1cnn2-c1ccc(F)cc1)c1ccnc(S(C)(=O)=O)c1", "inhibition": "13.3%"}
{"Compound": "COCCOc1nc(-c2ccc(Cl)nc2)nc2c1CN(C(=O)c1ncn3ccccc13)CC2", "inhibition": "-0.41%"}
{"Compound": "COc1ccc2c(O[C@@H]3C[C@H]4C(=O)N[C@]5(C(=O)O)CC5/C=C\\CCCCC[C@H](NC(=O)OC5CCCC5)C(=O)N4C3)cc(-c3csc(NC(=O)C(C)C)n3)nc2c1C (stereo partly shown)", "inhibition": "-6.16%"}
{"Compound": "Nc1cnc(N2CCc3cc(S(=O)(=O)Nc4c(F)cc(Cl)cc4F)cc(N4CCCC4=O)c32)nc1", "inhibition": "4.45%"}
{"Compound": "Cc1c(NC(=O)c2cc(C(N)=O)nc3cc(F)ccc23)c(C(F)(F)F)nn1Cc1ccc(C#N)cc1", "inhibition": "-3.47%"}
{"Compound": "COc1cccc(NC(=O)c2nc3scc(CN(C)Cc4ccccc4)c3c(=O)[nH]2)c1", "inhibition": "15.8%"}
{"Compound": "Cn1cncc1[C@](O)(COc1ccc(C#N)cc1-c1ccc(OC(F)(F)F)cc1)c1ccc(C#N)cc1", "inhibition": "10.8%"}
{"Compound": "CN(C)C(=O)Cn1cc(-c2nc([C@@](C)(c3ccc(-c4cnc(N)nc4)cc3)C3CC3)no2)cn1", "inhibition": "6.78%"}
{"Compound": "C[C@H](c1ccc(F)cc1)N(Cc1cccc(C(=O)O)c1)C(=O)c1cnc2ccccc2c1", "inhibition": "-16.8%"}
{"Compound": "C[C@@H](NC(=O)Nc1cc2[nH]ncc2c(CO)n1)c1ccccc1", "inhibition": "-1.87%"}
{"Compound": "CC(=O)N1CCC(c2ccc(C(=O)NC3=NCCN3)cc2C(F)(F)F)CC1", "inhibition": "-15.7%"}
{"Compound": "CN(c1ccnc(CNc2nc(Nc3ccc4c(c3)CC(=O)N4)ncc2C(F)(F)F)n1)S(C)(=O)=O", "inhibition": "-13.1%"}
{"Compound": "C[C@H](c1cccc(C#N)c1)n1cc(Cl)cc(C(N)=O)c1=N", "inhibition": "0.16%"}
{"Compound": "Cc1cc(-n2nc(Cc3cc(F)cc(C(F)(F)F)c3)nc2C)ccc1C(N)=O", "inhibition": "-4.42%"}
{"Compound": "CNC(=O)c1ccc(Nc2ncc(C(F)(F)F)c(NCc3nccnc3N(C)S(C)(=O)=O)n2)cc1", "inhibition": "-9.76%"}
{"data": "Sample 5", "cell line": "UACC-903 melanoma"}
{"SMILES": "CC(CN1c2ccccc2Sc2ccccc21)N(C)C (stereo not shown)", "pIC50": 4.76}
{"SMILES": "c1cc(CN2CCCCC2)cc(OCCCNc2nc3ccccc3s2)c1", "pIC50": 4.48}
{"SMILES": "OCCN1CCN(CCC=C2c3ccccc3Sc3ccc(C(F)(F)F)cc32)CC1", "pIC50": 5.15}
{"SMILES": "COCC(=O)O[C@]1(CCN(C)CCCc2nc3ccccc3[nH]2)CCc2cc(F)ccc2[C@@H]1C(C)C", "pIC50": 5.28}
{"SMILES": "O=C1NCCN1CCN1CCC(c2cn(-c3ccc(F)cc3)c3ccc(Cl)cc23)CC1", "pIC50": 5.18}
{"SMILES": "CCN(CC)CCCC(C)Nc1c2ccc(Cl)cc2nc2ccc(OC)cc12 (stereo not shown)", "pIC50": 5.59}
{"SMILES": "CN(C)CCCN1c2ccccc2Sc2ccccc21", "pIC50": 4.54}
{"SMILES": "CCCCCCCCNC(C)C(O)c1ccc(SC(C)C)cc1 (stereo not shown)", "pIC50": 5.19}
